Published values pooled from the literature.
Lines come from different studies, so protocols differ.

| Compound | assay | system | conditions | stability |
| --- | --- | --- | --- | --- |
| CC(=O)/C(C#N)=C/c1cccc(C(N)=O)c1 | – | – | buffer with DTT | stable |
| COC(=O)/C=C/C(=O)c1ccc(OC)cc1 | – | extracted plasma sample | 12 h, 4 °C | stable |
| COc1ccnc(C[S+]([O-])c2nc3cc(-n4cccc4)ccc3[nH]2)c1C (stereo not drawn) | – | rat plasma | – | stable |
| CC[C@H](C)[C@H](NC(=O)[C@H](CCC(=O)O)NC(=O)[C@H](CC(C)C)NC(=O)[C@H](CC(=O)O)NC(=O)[C@H](CC(=O)O)NC(=O)[C@@H]1CCCN1C(=O)[C@H](CCCNC(=N)N)NC(=O)[C@@H]1CCCN1C(=O)[C@@H](N)CCCNC(=N)N)C(=O)O | – | PBS | 7 d | stable |
| C=C(C)C(=O)Nc1ccc(-c2c(-c3ccc(Oc4cccc(C)n4)cc3)c3c(N)ncnc3n2C)cc1 | – | plasma and blood | across species | stable |
| C[C@H]1C[C@@H](Oc2cccc(F)n2)CCN1Cc1cnc(N[11C](C)=O)s1 | – | human plasma | 0.5 h, room temperature | 100% |
| CCC(C(=O)O)C1CCC(C)C(C(C)C(O)C(C)C(=O)C(CC)C2OC3(C=CC(NCc4cn(CSc5ccccc5)nn4)C4(CCC(C)(C5CCC(O)(CC)C(C)O5)O4)O3)C(C)CC2C)O1 (stereo not drawn) | 1H NMR | CD3OD | with: iron(II) chloride 0.5 equiv | stable |
| O=C(NC1CCCCC1)C(c1ccccn1)N(C(=O)CCl)c1cccc(F)c1 (racemic) | HPLC-MS | DPBS | 24 h, 37 °C | unstable |
| Cc1ccc(S(=O)(=O)Oc2ccc(C(C(N)=O)(c3ccccc3)c3ccc(F)cc3)cc2)cc1 (stereo not drawn) | – | DMF | concentration not given, 10 min, 130 °C, no base | stable |
| CCCC(CCC)C(=O)[O][Pt]([NH2])([NH2])([Cl])([Cl])[O]C(=O)C(Cl)Cl | HPLC | phosphate buffer | days, pH 7, 37 °C | stable |
| NC(=O)C(c1ccccc1)(c1ccc(F)cc1)c1ccc(OCC[18F])cc1 (stereo not drawn) | – | mouse serum | concentration not given, 120 min, 37 °C | stable |
| CSCOC1C(=O)C2(C)C(OCSC)CC3OCC3(OC(C)=O)C2C(OC(=O)c2ccccc2)C2(O)CC(OC(=O)C(O)C(C=C(C)C)NC(=O)OC(C)(C)C)C(C)=C1C2(C)C (stereo not drawn) | HPLC-MS/MS | rat liver homogenate | storage and freeze-thaw | stable |

Excerpt of the above:
| Compound | assay | system | conditions | stability |
| --- | --- | --- | --- | --- |
| NC(=O)C(c1ccccc1)(c1ccc(F)cc1)c1ccc(OCC[18F])cc1 (stereo not drawn) | – | mouse serum | concentration not given, 120 min, 37 °C | stable |
| CSCOC1C(=O)C2(C)C(OCSC)CC3OCC3(OC(C)=O)C2C(OC(=O)c2ccccc2)C2(O)CC(OC(=O)C(O)C(C=C(C)C)NC(=O)OC(C)(C)C)C(C)=C1C2(C)C (stereo not drawn) | HPLC-MS/MS | rat liver homogenate | storage and freeze-thaw | stable |
